Experimental data gathered from unrelated publications.
Each numbered part is a random draw from the data of one study; scales do not carry over between parts. Values joined by “and” are separate records of one study, mostly repeats; a detail may differ.
UniProt P10721, sequence (whole entry, unmodified, looked up): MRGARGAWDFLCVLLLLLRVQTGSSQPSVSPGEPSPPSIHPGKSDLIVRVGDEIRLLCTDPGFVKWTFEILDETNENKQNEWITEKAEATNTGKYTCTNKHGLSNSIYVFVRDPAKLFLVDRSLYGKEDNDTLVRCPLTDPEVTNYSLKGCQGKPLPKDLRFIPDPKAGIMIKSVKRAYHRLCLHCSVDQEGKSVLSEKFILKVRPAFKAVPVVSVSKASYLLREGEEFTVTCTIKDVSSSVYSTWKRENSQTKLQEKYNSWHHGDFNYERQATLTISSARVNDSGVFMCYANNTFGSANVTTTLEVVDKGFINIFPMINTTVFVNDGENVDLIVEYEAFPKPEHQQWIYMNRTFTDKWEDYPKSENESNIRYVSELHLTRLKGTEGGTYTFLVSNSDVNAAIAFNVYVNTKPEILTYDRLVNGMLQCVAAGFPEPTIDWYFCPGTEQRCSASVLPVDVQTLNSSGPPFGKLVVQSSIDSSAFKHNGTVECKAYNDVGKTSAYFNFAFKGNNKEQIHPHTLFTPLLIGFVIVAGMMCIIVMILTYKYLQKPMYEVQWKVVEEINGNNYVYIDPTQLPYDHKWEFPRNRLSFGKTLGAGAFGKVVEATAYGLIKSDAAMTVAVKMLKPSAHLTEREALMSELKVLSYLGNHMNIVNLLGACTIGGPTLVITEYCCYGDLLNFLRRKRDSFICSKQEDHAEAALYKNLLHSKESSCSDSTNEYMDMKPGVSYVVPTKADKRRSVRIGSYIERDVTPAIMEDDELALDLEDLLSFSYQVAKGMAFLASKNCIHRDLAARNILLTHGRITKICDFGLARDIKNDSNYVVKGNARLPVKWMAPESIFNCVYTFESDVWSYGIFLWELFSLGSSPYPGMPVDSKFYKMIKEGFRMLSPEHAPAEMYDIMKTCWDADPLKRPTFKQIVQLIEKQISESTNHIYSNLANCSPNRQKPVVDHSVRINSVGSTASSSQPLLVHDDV
UniProt Q8IW41, sequence (whole entry, looked up): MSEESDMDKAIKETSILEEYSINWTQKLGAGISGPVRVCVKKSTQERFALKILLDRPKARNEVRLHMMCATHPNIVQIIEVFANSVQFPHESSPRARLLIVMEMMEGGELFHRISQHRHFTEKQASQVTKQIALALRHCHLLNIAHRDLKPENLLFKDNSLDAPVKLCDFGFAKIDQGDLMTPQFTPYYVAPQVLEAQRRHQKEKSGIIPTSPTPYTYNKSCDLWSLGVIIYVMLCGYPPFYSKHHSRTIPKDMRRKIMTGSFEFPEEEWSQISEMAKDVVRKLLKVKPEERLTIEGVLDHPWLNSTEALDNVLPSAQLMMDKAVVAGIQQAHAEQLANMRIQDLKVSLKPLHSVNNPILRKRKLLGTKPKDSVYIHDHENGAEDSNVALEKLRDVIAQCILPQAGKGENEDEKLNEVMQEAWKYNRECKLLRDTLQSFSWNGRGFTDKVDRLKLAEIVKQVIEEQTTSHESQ
UniProt Q9H1R3, sequence (whole entry, looked up): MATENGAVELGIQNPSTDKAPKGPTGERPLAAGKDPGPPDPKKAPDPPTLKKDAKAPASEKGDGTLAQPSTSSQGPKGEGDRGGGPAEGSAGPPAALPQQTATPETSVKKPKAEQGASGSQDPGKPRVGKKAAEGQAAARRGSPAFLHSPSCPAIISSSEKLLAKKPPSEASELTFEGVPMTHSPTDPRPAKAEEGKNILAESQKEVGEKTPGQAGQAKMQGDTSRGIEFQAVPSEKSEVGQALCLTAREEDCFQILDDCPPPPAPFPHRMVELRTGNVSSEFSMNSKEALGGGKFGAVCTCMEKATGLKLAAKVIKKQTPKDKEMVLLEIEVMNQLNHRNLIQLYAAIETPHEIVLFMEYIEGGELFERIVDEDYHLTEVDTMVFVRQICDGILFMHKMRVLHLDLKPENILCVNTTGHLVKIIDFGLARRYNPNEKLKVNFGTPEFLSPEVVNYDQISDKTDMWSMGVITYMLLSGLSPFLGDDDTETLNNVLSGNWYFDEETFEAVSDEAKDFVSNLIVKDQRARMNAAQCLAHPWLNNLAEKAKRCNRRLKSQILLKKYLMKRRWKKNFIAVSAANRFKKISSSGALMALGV

Block 1
Target: Calcium/calmodulin-dependent protein kinase type II subunit alpha (CAMK2A, Homo sapiens, UniProt Q9UQM7)
UniProt Q9UQM7, sequence (whole entry, looked up): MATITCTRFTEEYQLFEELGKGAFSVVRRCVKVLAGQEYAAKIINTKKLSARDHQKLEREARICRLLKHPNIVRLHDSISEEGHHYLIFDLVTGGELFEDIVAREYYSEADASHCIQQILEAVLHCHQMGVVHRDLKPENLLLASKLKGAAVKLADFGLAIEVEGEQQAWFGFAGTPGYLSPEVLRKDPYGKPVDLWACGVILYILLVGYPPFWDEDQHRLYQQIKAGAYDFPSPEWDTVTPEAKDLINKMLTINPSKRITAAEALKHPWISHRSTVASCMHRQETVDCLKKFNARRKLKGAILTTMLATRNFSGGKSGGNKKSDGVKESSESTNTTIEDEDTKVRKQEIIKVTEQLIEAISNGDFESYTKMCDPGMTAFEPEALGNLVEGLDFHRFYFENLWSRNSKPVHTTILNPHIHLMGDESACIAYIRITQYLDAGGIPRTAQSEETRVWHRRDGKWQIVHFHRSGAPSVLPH
Observed: enzyme activity
Mode: inhibitor
Tested at: 10 µM
Endpoint: inhibition
COc1c(O)cc2oc3cc(O)c(CC=C(C)C)c(O)c3c(=O)c2c1CC=C(C)C: 45%
O=C(O)Cn1ccnc1: -38%
O=C(/C=C/c1ccc(O)c(O)c1)O[C@@H]1[C@H](O)C[C@@](O)(C(=O)O)C[C@H]1OC(=O)/C=C/c1ccc(O)c(O)c1: -20%
Oc1cc(O)c2c(c1)O[C@@]1(c3ccc(O)c(O)c3)Oc3cc(O)c4c(c3[C@@H]2[C@H]1O)O[C@H](c1ccc(O)c(O)c1)[C@H](O)[C@H]4c1c(O)cc(O)c2c1O[C@H](c1ccc(O)c(O)c1)[C@H](O)C2: -24%
CC(C)OC(=O)[C@H](C)N[P@](=O)(OC[C@H]1O[C@@H](n2ccc(=O)[nH]c2=O)[C@](C)(F)[C@@H]1O)Oc1ccccc1: 2%
CC(C)=CC(=O)NCC(=O)O: -21%
O=C1CC(C(=O)O)c2c1oc(=O)c1cc(O)c(O)c(O)c21 (stereo not shown): -45%
CCCCCCCCCCCCCCCCCCCCCCCC(=O)OC: -3%

Block 2
Structure (SMILES): Cc1nc(N2CC[C@@H](O)C2)ncc1-c1cc(C(F)(F)F)cc2[nH]ncc12
Method: competition with immobilised ligand
Tested at: 1 µM
Endpoint: remaining binding
FLT3 (Homo sapiens, UniProt P36888, D835V); binding: 58%
CAMK2D (Homo sapiens, UniProt Q13557); cell-free assay: 100%
ACVR2B (Homo sapiens, UniProt Q13705); binding: 79%
MINK1 (Homo sapiens, UniProt Q8N4C8); binding: 61%
KIT (Homo sapiens, UniProt P10721, D816H); cell-free assay: 53%
PRKG1 (Homo sapiens, UniProt Q13976); binding: 77%
LATS2 (Homo sapiens, UniProt Q9NRM7); binding: 26%
MAPK1 (Homo sapiens, UniProt P28482); binding: 100%
MAPK6 (Homo sapiens, UniProt Q16659); binding: 83%
Ribosomal protein S6 kinase alpha-4, C-terminal kinase domain (RPS6KA4, Homo sapiens, UniProt O75676); binding: 68%
CDKL2 (Homo sapiens, UniProt Q92772); binding: 100%
STK25 (Homo sapiens, UniProt O00506); binding: 100%
CDK18 (Homo sapiens, UniProt Q07002); binding: 100%
LYN (Homo sapiens, UniProt P07948); cell-free assay: 100%
MYLK2 (Homo sapiens, UniProt Q9H1R3); binding: 100%
EPHA1 (Homo sapiens, UniProt P21709); cell-free assay: 85%
DCLK1 (Homo sapiens, UniProt O15075); binding: 100%
Macrophage colony-stimulating factor 1 receptor, autoinhibited (CSF1R, Homo sapiens, UniProt P07333); cell-free assay: 82%
MAPKAPK5 (Homo sapiens, UniProt Q8IW41); binding: 68%
ALK (Homo sapiens, UniProt Q9UM73, C1156Y); cell-free assay: 100%
NEK10 (Homo sapiens, UniProt Q6ZWH5); binding: 96%

Block 3
Cell line: mouse MPNST tumor cells
Method: high-content nuclear imaging
Refers to: cell number
Tested at: 10 µM
Time: 12 h
Notes: mean of 2 replicates
Baseline: plate mean
Reading: higher = more cells
Endpoint: nuclei count
NC(N)=NCC1COC2(CCCCC2)O1 (stereo not shown): 1.96 z-score
Cc1cc(C)cc(NC(=O)Nc2ccc(OS(N)(=O)=O)cc2)c1: 1.77 z-score
CC(C)(C#N)c1cc(Cn2cncn2)cc(C(C)(C)C#N)c1: 0.868 z-score and 1.36 z-score and -0.257 z-score
COc1cccc(OC)c1-c1cc(C(=O)NC2(C(=O)O)C3CC4CC(C3)CC2C4)nn1-c1ccc(C(=O)N(C)CCCN(C)C)cc1C(C)C (stereo not shown): 1.4 z-score
CC(=O)/N=c1/sc(S(N)(=O)=O)nn1C: 0.017 z-score
O=c1[nH]nc(Sc2ncc([N+](=O)[O-])s2)n1-c1ccc2c(c1)OCCO2: -3.62 z-score

Block 4
Target: DNA polymerase theta, ATPase domain (POLQ, Homo sapiens, UniProt O75417)
UniProt O75417, sequence (whole entry, unmodified, looked up): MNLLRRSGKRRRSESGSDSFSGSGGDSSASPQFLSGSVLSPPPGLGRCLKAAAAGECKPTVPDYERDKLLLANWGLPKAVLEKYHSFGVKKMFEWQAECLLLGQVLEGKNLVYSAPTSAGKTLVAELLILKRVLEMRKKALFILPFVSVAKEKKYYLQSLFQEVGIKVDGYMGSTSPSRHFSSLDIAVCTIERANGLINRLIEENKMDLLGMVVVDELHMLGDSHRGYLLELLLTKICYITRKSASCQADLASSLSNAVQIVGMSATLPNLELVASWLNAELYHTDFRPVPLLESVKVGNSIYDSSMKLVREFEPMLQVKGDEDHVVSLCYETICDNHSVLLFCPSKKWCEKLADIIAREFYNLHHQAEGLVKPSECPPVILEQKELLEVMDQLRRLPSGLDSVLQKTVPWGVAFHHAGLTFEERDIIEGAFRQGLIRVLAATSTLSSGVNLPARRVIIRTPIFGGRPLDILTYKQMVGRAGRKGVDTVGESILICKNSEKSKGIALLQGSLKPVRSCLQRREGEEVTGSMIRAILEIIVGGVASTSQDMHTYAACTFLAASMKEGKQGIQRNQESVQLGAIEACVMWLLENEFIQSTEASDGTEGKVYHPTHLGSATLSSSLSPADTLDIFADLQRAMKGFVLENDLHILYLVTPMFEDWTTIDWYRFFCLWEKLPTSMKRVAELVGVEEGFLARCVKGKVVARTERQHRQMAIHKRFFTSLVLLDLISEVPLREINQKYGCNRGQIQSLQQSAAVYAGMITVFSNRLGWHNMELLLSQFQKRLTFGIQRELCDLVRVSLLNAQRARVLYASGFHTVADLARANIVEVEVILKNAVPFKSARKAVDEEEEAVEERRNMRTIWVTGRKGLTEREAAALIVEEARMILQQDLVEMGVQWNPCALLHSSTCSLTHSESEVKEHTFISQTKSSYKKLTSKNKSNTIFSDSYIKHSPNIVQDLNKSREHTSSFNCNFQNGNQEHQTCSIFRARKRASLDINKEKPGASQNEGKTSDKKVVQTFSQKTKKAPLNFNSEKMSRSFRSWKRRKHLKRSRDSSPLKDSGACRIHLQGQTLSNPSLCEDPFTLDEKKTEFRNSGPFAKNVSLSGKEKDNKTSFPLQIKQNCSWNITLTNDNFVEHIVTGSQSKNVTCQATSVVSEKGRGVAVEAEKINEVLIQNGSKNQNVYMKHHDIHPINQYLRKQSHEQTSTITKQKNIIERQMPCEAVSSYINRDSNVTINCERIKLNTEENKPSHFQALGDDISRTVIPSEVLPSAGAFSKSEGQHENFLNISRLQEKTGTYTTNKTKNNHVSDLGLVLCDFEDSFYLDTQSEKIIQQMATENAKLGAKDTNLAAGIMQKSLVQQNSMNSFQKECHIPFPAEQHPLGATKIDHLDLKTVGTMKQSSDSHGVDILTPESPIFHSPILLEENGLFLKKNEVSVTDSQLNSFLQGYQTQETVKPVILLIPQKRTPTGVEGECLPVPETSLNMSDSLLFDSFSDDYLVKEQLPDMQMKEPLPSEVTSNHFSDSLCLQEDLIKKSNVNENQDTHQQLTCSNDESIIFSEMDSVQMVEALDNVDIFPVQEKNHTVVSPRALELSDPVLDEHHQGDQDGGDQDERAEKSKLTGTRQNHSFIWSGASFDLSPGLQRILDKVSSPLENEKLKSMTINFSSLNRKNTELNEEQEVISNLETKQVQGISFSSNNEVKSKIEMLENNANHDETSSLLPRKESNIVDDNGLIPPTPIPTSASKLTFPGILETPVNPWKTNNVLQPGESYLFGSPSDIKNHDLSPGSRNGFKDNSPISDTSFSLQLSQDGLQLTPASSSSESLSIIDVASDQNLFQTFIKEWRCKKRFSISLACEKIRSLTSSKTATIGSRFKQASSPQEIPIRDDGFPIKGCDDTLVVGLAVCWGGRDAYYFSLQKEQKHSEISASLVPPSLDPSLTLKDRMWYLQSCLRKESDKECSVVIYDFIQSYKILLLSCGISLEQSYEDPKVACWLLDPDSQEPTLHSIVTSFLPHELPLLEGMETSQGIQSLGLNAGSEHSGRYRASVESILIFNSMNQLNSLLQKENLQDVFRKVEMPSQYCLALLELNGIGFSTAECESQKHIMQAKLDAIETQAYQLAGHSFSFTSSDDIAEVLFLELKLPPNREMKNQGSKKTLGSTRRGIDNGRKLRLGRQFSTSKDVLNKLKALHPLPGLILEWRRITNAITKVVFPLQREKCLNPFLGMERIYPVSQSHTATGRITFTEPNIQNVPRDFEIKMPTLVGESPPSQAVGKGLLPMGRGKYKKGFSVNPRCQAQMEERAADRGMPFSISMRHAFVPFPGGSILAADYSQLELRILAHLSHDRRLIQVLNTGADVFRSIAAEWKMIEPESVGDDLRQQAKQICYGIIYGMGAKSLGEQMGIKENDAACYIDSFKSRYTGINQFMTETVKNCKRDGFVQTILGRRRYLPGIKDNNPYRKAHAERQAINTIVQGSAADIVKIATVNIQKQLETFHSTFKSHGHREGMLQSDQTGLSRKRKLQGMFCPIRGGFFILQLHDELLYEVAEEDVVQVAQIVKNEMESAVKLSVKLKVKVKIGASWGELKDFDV
Observed: enzyme activity
Mode: inhibitor
Tested at: 77 µM
Baseline: untreated
Endpoint: remaining activity
CC(C)(C)NC[C@H](O)COc1ccccc1C1CCCC1: 96.8%
COc1cc(F)c(C(C)C)cc1-c1ccc(C(F)(F)F)cc1CN1C(=O)O[C@H](c2cc(C(F)(F)F)cc(C(F)(F)F)c2)[C@@H]1C: 104%
CNCC[C@@H](Oc1ccccc1C)c1ccccc1: 102%
CC(=C(CCO)SSCC1CCCO1)N(C=O)Cc1cnc(C)nc1N (stereo in doubt): 102%
NC1CONC1=O (racemic): 102%
C[C@]12CCC(=O)C=C1CC[C@@H]1[C@@H]2CC[C@@]2(C)[C@H]1CC[C@]2(O)C(=O)CO: 94.8%
CC1Cc2ccccc2N1NC(=O)c1ccc(Cl)c(S(N)(=O)=O)c1 (stereo not shown): 100% and 102%
NC(=O)OCC(COC(N)=O)c1ccccc1: 103%
